Published values pooled from the literature.
Each line is one published result; not all experiments were run side by side. ± marks the error that the study gave.

With `Cc1ncc2n1-c1ccc(Cl)cc1C(c1ccccc1F)=NC2` the terminal half-life was 5.66 h (human CYP3A5*1/*1, serum; geometric mean, added: ketoconazole 200 mg).
`CN[C@@](C)(C[18F])C(=O)O` gave a tracer uptake of 25 %ID/g (DU-145 tumour model; host not given, kidney; 15 min, tumour-bearing).
For `CN1CC[C@]23c4c5ccc(O)c4O[C@H]2[C@@H](O[C@@H]2O[C@H](C(=O)O)[C@@H](O)[C@H](O)[C@H]2O)C=C[C@H]3[C@H]1C5`, the Papp was 2.11 ± 0.08 ×10⁻⁶ cm/s (MDCK II; 100.0 µg/mL, 100.0 min, DMEM buffer).
`C=C1C[C@@H]2[C@H](CC[C@]3(C)C(=O)CC[C@@H]23)[C@@]2(C)C=CC(=O)C=C12` — result for “median plasma concentration”: 8.3 ng/mL (LC-MS/MS; postmenopausal breast cancer women, plasma; oral, 25 mg/day, 2 h, CYP1A1*2 heterozygous).
`CN/C(=N\[N+](=O)[O-])NCc1cnc(Cl)s1` has an LC50 of 0.07 mg/kg dry soil (Folsomia candida; survival, OECD 232; LUFA 2.2 soil; 28 days).
`C[C@H]1CNCCc2ccc(Cl)cc21` gave a CL/F of 253 mL/min/kg (male Sprague-Dawley rat, plasma; subcutaneous, 3 mg/kg, single dose).
For `COc1ccc2c(c1)[C@]13CCCC[C@@H]1[C@H](C2)N(C)CC3`, the AUC(0-inf) was 156 ± 25 ng·h/mL (Wistar rat, both sexes, plasma; oral, 5 mg/kg, 2 h after pretreatment, added: single TCE 400 mg/kg).
`Clc1ccc(Cl)c(-c2cc(Cl)c(Cl)cc2Cl)c1` gave a fold induction of 1.8 ± 0.4 fold (PXR (polar bear); reporter gene, agonist, luciferase; COS-7; 24 h; reference: DMSO).

Excerpt of the above:
`Clc1ccc(Cl)c(-c2cc(Cl)c(Cl)cc2Cl)c1` gave a fold induction of 1.8 ± 0.4 fold (PXR (polar bear); reporter gene, agonist, luciferase; COS-7; 24 h; reference: DMSO).
